# Results collected from several papers.
# Each numbered part is a random draw from the data of one study; scales do not carry over between parts.
# Sequence of UniProt P10721 (whole entry, unmodified, looked up): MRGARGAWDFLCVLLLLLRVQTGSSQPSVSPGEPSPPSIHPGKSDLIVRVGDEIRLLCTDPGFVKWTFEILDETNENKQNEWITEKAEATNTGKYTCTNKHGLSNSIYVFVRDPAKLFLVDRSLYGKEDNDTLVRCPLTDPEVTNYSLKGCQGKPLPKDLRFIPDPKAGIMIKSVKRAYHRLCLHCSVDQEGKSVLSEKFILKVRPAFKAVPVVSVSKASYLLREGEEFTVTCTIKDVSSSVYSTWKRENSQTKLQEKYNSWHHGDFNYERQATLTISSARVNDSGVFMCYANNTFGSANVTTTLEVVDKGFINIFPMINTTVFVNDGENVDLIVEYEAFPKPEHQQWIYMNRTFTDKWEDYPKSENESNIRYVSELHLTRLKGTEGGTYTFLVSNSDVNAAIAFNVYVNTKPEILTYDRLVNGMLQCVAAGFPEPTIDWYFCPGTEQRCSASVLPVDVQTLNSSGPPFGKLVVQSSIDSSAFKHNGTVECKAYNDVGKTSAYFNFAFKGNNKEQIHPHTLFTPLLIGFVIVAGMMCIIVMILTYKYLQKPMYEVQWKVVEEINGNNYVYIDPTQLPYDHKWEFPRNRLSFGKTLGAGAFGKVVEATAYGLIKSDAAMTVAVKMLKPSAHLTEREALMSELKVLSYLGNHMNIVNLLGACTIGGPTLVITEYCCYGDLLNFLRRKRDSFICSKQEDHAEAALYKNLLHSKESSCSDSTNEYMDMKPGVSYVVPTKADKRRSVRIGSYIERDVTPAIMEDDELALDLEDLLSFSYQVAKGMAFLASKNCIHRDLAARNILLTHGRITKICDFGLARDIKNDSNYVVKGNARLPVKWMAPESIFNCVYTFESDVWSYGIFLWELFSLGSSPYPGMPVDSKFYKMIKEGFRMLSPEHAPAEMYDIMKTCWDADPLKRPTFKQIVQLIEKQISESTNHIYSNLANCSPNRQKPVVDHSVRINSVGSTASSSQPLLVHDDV
# Sequence of UniProt O94921 (whole entry, looked up): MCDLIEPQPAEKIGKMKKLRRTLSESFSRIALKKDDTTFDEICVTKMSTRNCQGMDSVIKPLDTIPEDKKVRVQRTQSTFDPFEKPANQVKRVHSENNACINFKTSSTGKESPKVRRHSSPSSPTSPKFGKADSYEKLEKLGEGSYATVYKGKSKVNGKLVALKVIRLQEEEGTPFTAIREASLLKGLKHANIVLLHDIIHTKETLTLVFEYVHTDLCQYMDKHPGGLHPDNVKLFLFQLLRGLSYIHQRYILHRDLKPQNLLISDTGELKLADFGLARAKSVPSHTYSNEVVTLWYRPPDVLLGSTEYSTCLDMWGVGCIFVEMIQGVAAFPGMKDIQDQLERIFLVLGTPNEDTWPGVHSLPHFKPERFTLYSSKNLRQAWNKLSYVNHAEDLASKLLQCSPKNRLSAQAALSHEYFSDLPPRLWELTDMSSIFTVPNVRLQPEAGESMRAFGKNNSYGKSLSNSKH
# Sequence of UniProt P57058 (whole entry, looked up): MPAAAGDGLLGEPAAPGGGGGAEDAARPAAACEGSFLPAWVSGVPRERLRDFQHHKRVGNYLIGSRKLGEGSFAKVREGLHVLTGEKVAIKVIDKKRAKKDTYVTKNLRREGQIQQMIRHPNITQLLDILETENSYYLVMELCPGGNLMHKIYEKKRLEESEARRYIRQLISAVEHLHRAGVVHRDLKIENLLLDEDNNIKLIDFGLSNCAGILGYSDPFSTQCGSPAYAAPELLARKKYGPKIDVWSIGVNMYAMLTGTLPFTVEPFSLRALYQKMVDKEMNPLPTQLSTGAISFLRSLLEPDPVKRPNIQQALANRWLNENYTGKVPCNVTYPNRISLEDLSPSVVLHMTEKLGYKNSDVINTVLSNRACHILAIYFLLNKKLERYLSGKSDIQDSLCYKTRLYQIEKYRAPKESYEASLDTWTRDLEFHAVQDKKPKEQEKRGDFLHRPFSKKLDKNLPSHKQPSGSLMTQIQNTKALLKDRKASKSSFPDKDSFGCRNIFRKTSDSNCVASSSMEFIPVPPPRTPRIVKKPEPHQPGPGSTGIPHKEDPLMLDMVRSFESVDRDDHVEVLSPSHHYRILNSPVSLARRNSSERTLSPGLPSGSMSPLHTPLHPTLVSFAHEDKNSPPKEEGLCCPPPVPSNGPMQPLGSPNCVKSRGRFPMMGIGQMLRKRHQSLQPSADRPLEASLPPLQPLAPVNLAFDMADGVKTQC
# Sequence of UniProt Q04912 (whole entry, looked up): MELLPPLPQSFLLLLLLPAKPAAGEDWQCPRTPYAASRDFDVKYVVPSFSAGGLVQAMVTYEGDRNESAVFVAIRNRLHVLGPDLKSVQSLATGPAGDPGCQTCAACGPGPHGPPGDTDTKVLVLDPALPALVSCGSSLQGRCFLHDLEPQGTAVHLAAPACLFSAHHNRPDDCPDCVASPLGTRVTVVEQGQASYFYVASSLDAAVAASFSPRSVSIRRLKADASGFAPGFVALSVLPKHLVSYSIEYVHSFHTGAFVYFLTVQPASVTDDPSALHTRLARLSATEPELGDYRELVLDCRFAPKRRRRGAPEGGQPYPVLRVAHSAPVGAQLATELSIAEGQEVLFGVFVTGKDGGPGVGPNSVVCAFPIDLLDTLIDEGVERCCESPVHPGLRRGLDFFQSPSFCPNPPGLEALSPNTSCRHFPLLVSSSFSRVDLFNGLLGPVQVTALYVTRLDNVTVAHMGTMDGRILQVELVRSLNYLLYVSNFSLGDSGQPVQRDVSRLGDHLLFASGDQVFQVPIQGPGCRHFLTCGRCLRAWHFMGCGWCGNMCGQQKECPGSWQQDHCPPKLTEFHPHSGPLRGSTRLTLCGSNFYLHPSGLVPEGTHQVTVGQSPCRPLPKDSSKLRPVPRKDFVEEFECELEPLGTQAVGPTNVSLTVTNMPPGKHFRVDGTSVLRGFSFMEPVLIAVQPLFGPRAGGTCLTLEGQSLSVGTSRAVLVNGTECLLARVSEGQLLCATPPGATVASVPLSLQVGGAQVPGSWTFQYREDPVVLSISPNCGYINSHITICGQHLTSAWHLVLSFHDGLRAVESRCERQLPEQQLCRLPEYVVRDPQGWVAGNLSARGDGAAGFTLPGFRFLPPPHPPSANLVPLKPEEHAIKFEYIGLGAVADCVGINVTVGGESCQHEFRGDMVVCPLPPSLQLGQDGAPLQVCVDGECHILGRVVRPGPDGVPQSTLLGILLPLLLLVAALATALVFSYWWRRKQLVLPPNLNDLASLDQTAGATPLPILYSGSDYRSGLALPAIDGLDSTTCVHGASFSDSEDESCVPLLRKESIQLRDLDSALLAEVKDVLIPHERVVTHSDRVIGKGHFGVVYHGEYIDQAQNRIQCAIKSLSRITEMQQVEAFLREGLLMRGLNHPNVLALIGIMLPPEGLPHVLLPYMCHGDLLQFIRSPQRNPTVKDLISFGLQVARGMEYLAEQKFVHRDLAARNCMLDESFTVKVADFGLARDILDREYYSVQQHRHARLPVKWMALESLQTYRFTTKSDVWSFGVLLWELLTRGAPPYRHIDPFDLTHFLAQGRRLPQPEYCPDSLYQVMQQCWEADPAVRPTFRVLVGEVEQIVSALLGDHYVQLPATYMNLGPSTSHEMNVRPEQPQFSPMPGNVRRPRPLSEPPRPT
# Sequence of UniProt Q9UBF8 (whole entry, looked up): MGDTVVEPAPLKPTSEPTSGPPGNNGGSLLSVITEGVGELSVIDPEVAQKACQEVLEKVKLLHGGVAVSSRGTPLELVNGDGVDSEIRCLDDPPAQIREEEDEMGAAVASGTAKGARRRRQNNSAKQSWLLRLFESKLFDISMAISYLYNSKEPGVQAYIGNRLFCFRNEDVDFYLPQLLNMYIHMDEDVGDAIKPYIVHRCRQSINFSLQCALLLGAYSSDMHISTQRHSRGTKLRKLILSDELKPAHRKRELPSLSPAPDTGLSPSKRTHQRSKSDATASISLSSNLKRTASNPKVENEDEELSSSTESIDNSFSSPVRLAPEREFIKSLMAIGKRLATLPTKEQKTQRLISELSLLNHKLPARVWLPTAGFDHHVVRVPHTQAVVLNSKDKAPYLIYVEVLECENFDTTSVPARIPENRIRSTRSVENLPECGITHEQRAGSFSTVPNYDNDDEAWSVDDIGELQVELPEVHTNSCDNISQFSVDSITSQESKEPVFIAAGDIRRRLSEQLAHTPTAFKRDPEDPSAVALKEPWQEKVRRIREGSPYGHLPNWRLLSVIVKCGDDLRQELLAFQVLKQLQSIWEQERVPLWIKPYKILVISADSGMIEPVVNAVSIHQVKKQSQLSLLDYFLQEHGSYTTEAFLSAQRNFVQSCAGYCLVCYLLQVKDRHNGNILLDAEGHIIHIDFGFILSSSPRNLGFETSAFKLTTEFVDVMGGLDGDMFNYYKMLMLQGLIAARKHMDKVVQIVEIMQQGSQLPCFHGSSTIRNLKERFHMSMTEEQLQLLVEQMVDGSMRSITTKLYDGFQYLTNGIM
# Sequence of UniProt Q96NX5 (whole entry, looked up): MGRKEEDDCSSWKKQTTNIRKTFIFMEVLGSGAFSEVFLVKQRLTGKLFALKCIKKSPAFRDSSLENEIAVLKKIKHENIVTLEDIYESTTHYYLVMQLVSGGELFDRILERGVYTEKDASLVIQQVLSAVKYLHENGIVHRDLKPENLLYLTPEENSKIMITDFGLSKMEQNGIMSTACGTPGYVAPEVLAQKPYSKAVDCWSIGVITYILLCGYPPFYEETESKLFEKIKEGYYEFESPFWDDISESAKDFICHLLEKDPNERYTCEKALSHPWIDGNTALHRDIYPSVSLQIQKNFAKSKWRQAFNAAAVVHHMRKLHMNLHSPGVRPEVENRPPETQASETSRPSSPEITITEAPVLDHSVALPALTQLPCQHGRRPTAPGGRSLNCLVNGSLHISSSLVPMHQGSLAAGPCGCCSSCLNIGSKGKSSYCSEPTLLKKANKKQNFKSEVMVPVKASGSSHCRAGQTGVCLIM

# Sample 1 — read-out: cell-free assay; method: competition with immobilised ligand; concentration: 1 µM
# Compound: COc1ccc2c(c1)O[C@@H](c1ccc(OC)c(OC)c1)C[C@H]2NC(=O)C1(c2ccc3c(c2)OC(F)(F)O3)CC1
target,remaining binding [%]
"NT-3 growth factor receptor (NTRK3, Homo sapiens, UniProt Q16288)",83
"Phosphatidylinositol 4-kinase beta (PI4KB, Homo sapiens, UniProt Q9UBF8)",73
"Macrophage-stimulating protein receptor (MST1R, Homo sapiens, UniProt Q04912)",94
"Hormonally up-regulated neu tumor-associated kinase (HUNK, Homo sapiens, UniProt P57058)",100
"Calcium/calmodulin-dependent protein kinase type 1G (CAMK1G, Homo sapiens, UniProt Q96NX5)",84
"Cyclin-dependent kinase 14 (CDK14, Homo sapiens, UniProt O94921)",93
"Serine/threonine-protein kinase B-raf (BRAF, Homo sapiens, UniProt P15056, V600E)",100
"Dual specificity protein kinase CLK3 (CLK3, Homo sapiens, UniProt P49761)",100
"Mast/stem cell growth factor receptor Kit (KIT, Homo sapiens, UniProt P10721, D816V)",92
"Protein kinase C epsilon type (PRKCE, Homo sapiens, UniProt Q02156)",91
"Calcium/calmodulin-dependent protein kinase type II subunit delta (CAMK2D, Homo sapiens, UniProt Q13557)",91

# Sample 2 — method: RNA Bind-n-Seq; form: RNA; matrix: in vitro; concentration: not given; relative to: input RNA pool; reading: higher = stronger binding
# Target: RING finger protein unkempt homolog, zinc fingers 1-6, GST-SBP tag (UNK, Homo sapiens, UniProt Q9C0B0, residues 30-357)
# Setting: RNA with constant flanks, human and mouse sites, ends assumed
# Construct (chain): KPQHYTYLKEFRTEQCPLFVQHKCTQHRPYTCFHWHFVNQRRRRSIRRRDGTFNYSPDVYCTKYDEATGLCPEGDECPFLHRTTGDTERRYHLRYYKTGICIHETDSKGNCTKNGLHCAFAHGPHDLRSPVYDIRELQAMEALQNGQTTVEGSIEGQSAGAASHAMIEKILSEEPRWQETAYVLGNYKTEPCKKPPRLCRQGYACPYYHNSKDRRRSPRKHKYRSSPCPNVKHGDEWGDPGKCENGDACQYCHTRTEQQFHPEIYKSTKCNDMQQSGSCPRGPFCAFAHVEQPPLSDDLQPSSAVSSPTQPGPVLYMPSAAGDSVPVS
Strand,bound/input enrichment [ratio]
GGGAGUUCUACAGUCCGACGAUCGGUGUACGCGGCGAUUUCAACUCUCGAAUGGGAGGAGGCAGUAUAGAGGUAUCUGUGCCUAGGUUUGCUGUGGGGAUUGUAAUAGGAAGAAACGGGGAAAUGAUCAAAAAGAUCCAGAAUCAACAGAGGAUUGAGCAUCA,1.51
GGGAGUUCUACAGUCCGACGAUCUCGGGAGGUGAUAAGACUUACAGUUUCCUAACAGCAGUGCAGGGAGGAAGUUUUAUUUUGUCUUCAUCAGGAAGCCAACUAAUUCGGUUGAUACCUGAGAGCUCAGGAAAGAUUCAUCAGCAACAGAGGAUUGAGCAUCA,0.154
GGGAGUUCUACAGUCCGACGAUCCUCUUGGAGAAGUUAUAUAAGGUAAAUCUUAAAGUGAAGCAUGUGGAAUAUGAUACAUUUUACAUUCCUGAGAUUUCCAAUCUCGUGGACAUUCAGGAAGACUACCUCAUGUGGUUCUUGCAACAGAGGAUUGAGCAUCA,0.116
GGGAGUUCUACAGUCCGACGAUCUUAUCUAAAACAGUGAGAAUUACCUUUGGAUUCAACUGCAGAAAUAAAGAUCAUUAUGGGAUAAUGAUGUAUCACAGAAAUAGACUCAUCAAAGCUUAUGAAAAAGUUGGAUGUCAGUUACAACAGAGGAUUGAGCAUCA,0.122
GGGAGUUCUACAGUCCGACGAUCGAACAAGACAAUGGUGGCACCACAGAAUCUGUCAAAGAACAAGAAAUGAAGUGGACAGACUUAGCCUUACAGUACCUCCAUGAGAAUGUUCCCCCCAUUGGAAACUGACGCUUGGCUCCUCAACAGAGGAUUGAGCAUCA,0.194
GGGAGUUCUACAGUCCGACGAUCUAACAGUCAAUCAGCAACUGCAGGACUCACGAAAGGUACAAGUCUGUGGUAUCAUCUUGCUAGCAUCUAUGUUGUGGUGUGCCAAGCCUGAUGGGCAGUAAGCUUCCUGUGAUGUUUGUCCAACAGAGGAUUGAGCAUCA,0.0693
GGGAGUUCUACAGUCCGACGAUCCCUGUUGGAAGAGCUGGGGUCUUGCUAUCUGAAAUAUUGCACCUACUAUGCAAACAAAUGAGCCAUAAGAAAGUGGGAGCCUUAUGGAGGGAGGCUGACCUCAGCUGGAAGGACUUUUUACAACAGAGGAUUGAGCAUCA,0.0875
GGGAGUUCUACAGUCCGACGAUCAAGAGGAAAUACUCAGAGGUUGAUGAUAGCUUGCCUUCAGGAGGAGAAAAACCAUCAAAGAAUGAAACCGGCUUAUUGUCUUCAAUUAAAAAGUUCAUUAAAGGAAGCACACCCAAGGAACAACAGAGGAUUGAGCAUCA,0.207

# Sample 3 — species: human; matrix: microsomes or S9; concentration: 2 µM; time: 0.5 h
SMILES,remaining compound [%]
CC(=O)Nc1ccc(N2N=C(c3ccc(O)cc3)C(C)CC2=O)cc1 (centres unmarked),70
CC(=O)N1CCc2[nH]cnc2C12CCN(C(=O)C(F)c1ccccc1)CC2 (centres unmarked),> 100
COc1c(O)cc2c(c1O)C(=O)c1c(cc(C)c(O)c1OC)C2=O,> 99

# Further values, each from its own experiment
SMILES,cell line,concentration,time,endpoint,result
O=C1CCC(N2C(=O)c3ccccc3C2=O)C(=O)N1 (centres unmarked),HaCaT,100 µM,36 h,viability,95.3%

# A few entries again (sample 1):
target,remaining binding [%]
"NT-3 growth factor receptor (NTRK3, Homo sapiens, UniProt Q16288)",83
